Experimental data pooled from the literature.
Protocols differ between the studies behind these lines. ± gives the spread as reported.
UniProt P21729, sequence (whole entry, looked up): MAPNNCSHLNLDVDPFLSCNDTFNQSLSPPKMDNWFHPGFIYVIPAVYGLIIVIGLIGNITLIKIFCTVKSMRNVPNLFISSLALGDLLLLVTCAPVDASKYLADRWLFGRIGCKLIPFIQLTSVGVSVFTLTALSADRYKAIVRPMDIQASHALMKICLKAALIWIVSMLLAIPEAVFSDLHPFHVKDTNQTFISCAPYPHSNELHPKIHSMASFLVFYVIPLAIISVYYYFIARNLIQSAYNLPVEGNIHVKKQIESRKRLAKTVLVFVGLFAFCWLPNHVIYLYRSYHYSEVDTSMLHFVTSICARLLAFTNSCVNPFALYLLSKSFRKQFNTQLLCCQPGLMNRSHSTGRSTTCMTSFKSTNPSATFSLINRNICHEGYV
UniProt P21554, sequence (whole entry, unmodified, looked up): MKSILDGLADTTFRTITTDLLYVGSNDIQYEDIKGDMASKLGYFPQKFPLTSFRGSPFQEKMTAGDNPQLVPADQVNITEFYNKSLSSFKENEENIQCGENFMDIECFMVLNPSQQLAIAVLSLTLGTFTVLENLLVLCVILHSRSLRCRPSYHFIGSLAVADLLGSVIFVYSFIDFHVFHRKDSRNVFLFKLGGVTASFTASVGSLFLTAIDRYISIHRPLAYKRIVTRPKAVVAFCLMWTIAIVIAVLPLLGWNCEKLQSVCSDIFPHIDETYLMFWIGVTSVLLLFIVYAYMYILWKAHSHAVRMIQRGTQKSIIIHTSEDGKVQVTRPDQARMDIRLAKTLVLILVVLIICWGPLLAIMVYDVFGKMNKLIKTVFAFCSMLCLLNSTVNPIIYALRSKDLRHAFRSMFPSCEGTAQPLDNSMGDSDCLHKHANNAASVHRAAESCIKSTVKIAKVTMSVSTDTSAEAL

CCCC[C@H](NC(=O)COCCOCCNC(=O)c1ccc(NN)nc1)C(=O)N[C@H]1CC(=O)NCCCC[C@@H](C(N)=O)NC(=O)[C@H](Cc2c[nH]c3ccccc23)NC(=O)[C@H](CCCNC(=N)N)NC(=O)[C@@H](Cc2ccccc2)NC(=O)[C@H](Cc2c[nH]cn2)NC1=O [technetium-99m labelled] — tissue uptake (C57 mouse, female, B16/F1 melanoma, tumor; intravenous, 0.037 MBq, 2 h): 14.3 ± 2.82 %ID/g
CSCC[C@H](NC(=O)[C@H](CC(C)C)NC(=O)[C@H](Cc1c[nH]cn1)NC(=O)CNC(=O)[C@@H](NC(=O)[C@H](C)NC(=O)[C@H](Cc1c[nH]c2ccccc12)NC(=O)[C@H](CCC(N)=O)NC(=O)CCCCCCCNC(=O)CCC(=O)Nc1ccc(CNC23CNCCNCC(N)(CNCCNC2)CNCCNC3)cc1)C(C)C)C(N)=O [copper-64 labelled] — tissue uptake (female SCID mice, PC-3 xenograft, spleen; intravenous, 0.6 MBq, 4 h): 3.19 ± 1.21 %ID/g
N=C(N)NCCC[C@@H]1NC(=O)[C@H](CCCCNC(=O)CCOCCOCCOCCOCCNC(=O)CC[C@H](NC(=O)CCOCCOCCOCCOCCNC(=O)CC[C@H](NC(=O)CN2CCN(CC(=O)O)CCN(CC(=O)O)CCN(CC(=O)O)CC2)C(=O)NCCOCCOCCOCCOCCC(=O)N[C@@H](CCC(=O)NCCOCCOCCOCCOCCC(=O)NCCCC[C@@H]2NC(=O)[C@@H](Cc3ccccc3)NC(=O)[C@H](CC(=O)O)NC(=O)CNC(=O)[C@H](CCCNC(=N)N)NC2=O)C(=O)NCCOCCOCCOCCOCCC(=O)NCCCC[C@@H]2NC(=O)[C@@H](Cc3ccccc3)NC(=O)[C@H](CC(=O)O)NC(=O)CNC(=O)[C@H](CCCNC(=N)N)NC2=O)C(=O)NCCOCCOCCOCCOCCC(=O)NCCCC[C@@H]2NC(=O)[C@@H](Cc3ccccc3)NC(=O)[C@H](CC(=O)O)NC(=O)CNC(=O)[C@H](CCCNC(=N)N)NC2=O)NC(=O)[C@@H](Cc2ccccc2)NC(=O)[C@H](CC(=O)O)NC(=O)CNC1=O [indium-111 labelled] — tissue uptake (female athymic nude mice, lungs; intravenous, 3 µCi, 24 h, U-87 MG glioma xenograft): 1.62 ± 0.21 %ID/g
CCCC[C@H](NC(=O)CCCCCCCNC(=O)c1ccc(NN)nc1)C(=O)N[C@H]1CC(=O)NCCCC[C@@H](C(N)=O)NC(=O)[C@H](Cc2c[nH]c3ccccc23)NC(=O)[C@H](CCCNC(=N)N)NC(=O)[C@@H](Cc2ccccc2)NC(=O)[C@H](Cc2c[nH]cn2)NC1=O [technetium-99m labelled] — tissue uptake (C57 mouse, B16/F1 melanoma, kidneys; 2 h, with: L-lysine 12 mg co-injected): 4.64 ± 0.48 %ID/g
CSCC[C@H](NC(=O)[C@H](CC(C)C)NC(=O)[C@H](Cc1c[nH]cn1)NC(=O)CNC(=O)[C@@H](NC(=O)[C@H](C)NC(=O)[C@H](Cc1c[nH]c2ccccc12)NC(=O)[C@H](CCC(N)=O)NC(=O)CCCCCNC(=O)CNC(=O)CNC(=O)CNC(=O)CSC(C)=O)C(C)C)C(N)=O [technetium-99m labelled] — tissue uptake (Swiss mouse, blood; intravenous, 18.5 MBq, 30 min): 0.36 ± 0.06 %ID/g
N=C(N)NCCC[C@@H]1NC(=O)[C@H](CCCCNC(=O)CC[C@H](NC(=O)CCOCCOCCOCCOCCNC(=O)CC[C@H](NC(=O)CN2CCN(CC(=O)O)CCN(CC(=O)O)CCN(CC(=O)O)CC2)C(=O)NCCOCCOCCOCCOCCC(=O)N[C@@H](CCC(=O)NCCCC[C@@H]2NC(=O)[C@@H](Cc3ccccc3)NC(=O)[C@H](CC(=O)O)NC(=O)CNC(=O)[C@H](CCCNC(=N)N)NC2=O)C(=O)NCCCC[C@@H]2NC(=O)[C@@H](Cc3ccccc3)NC(=O)[C@H](CC(=O)O)NC(=O)CNC(=O)[C@H](CCCNC(=N)N)NC2=O)C(=O)NCCCC[C@@H]2NC(=O)[C@@H](Cc3ccccc3)NC(=O)[C@H](CC(=O)O)NC(=O)CNC(=O)[C@H](CCCNC(=N)N)NC2=O)NC(=O)[C@@H](Cc2ccccc2)NC(=O)[C@H](CC(=O)O)NC(=O)CNC1=O [indium-111 labelled] — tissue uptake (female athymic nude mice, intestine; intravenous, 3 µCi, 72 h, U-87 MG glioma xenograft): 1.03 ± 0.1 %ID/g
CN[C@](C)(C[18F])C(=O)O — tracer uptake (MDA-MB-468 tumour model; host not given, lung; 15 min, tumour-bearing): 3.7 %ID/g
N=C(N)NCCC[C@@H]1NC(=O)[C@H](CCCCNC(=O)CCOCCOCCOCCOCCNC(=O)CN2CCN(CC(=O)O)CCN(CC(=O)O)CCN(CC(=O)O)CC2)NC(=O)[C@@H](Cc2ccccc2)NC(=O)[C@H](CC(=O)O)NC(=O)CNC1=O [indium-111 labelled] — tissue uptake (female athymic nude mice, spleen; intravenous, 3 µCi, 0.5 h, U-87 MG glioma xenograft): 2.91 ± 0.51 %ID/g
CC[C@H](C)C(=O)N1CCC(NC(=O)Nc2ccc(OC(F)(F)F)c(F)c2)CC1 — subjects with dyspnoea TEAE (healthy volunteers; oral, 0.5 mg single dose, 14 (unit not given)): 0%
N=C(N)NCCC[C@@H]1NC(=O)[C@H](CC(=O)NC23CNCCNCC(N)(CNCCNC2)CNCCNC3)NC(=O)[C@@H](Cc2ccccc2)NC(=O)[C@H](CC(=O)O)NC(=O)CNC1=O [copper-64 labelled] — tissue uptake (Nu/Nu mouse, male, tumour-bearing, blood; intravenous, 10 µCi, 2 h): 0.14 ± 0.04 %ID/g
CCCCCn1cc(C(=O)c2cccc3c2CC(C)(C)C3)c2ccccc21 — change in Emax (CNR1 (Homo sapiens, UniProt P21554, F174A); Gαi1 engagement, agonist, BRET; reference: wild type): 32%
CCCC[C@H](NC(=O)CNC(=O)CNC(=O)c1ccc(NN)nc1)C(=O)N[C@H]1CC(=O)NCCCC[C@@H](C(N)=O)NC(=O)[C@H](Cc2c[nH]c3ccccc23)NC(=O)[C@H](CCCNC(=N)N)NC(=O)[C@@H](Cc2ccccc2)NC(=O)[C@H](Cc2c[nH]cn2)NC1=O [technetium-99m labelled] — tissue uptake (C57 mouse, B16/F1 melanoma-bearing, liver; intravenous, 4 h): 0.6 ± 0.19 %ID/g
CCCNC(=O)[C@H](CC(C)C)NC(=O)[C@H](Cc1c[nH]cn1)NC(=O)CNC(=O)[C@@H](NC(=O)[C@H](C)NC(=O)[C@H](Cc1c[nH]c2ccccc12)NC(=O)[C@H](CCC(N)=O)NC(=O)[C@@H](Cc1ccccc1)NC(=O)CCCCCNC(=O)CN1CCN(CC(=O)O)CCN(CC(=O)O)CCN(CC(=O)O)CC1)C(C)C [indium-111 labelled] — tissue uptake (Gastrin-releasing peptide receptor (Mus musculus, UniProt P21729); CF-1 mice, large intestine; intravenous, dose not given, 1 h, with: bombesin 100 µg (blocking)): 0.13 ± 0.03 %ID/g

Repeated from above:
CSCC[C@H](NC(=O)[C@H](CC(C)C)NC(=O)[C@H](Cc1c[nH]cn1)NC(=O)CNC(=O)[C@@H](NC(=O)[C@H](C)NC(=O)[C@H](Cc1c[nH]c2ccccc12)NC(=O)[C@H](CCC(N)=O)NC(=O)CCCCCCCNC(=O)CCC(=O)Nc1ccc(CNC23CNCCNCC(N)(CNCCNC2)CNCCNC3)cc1)C(C)C)C(N)=O [copper-64 labelled] — tissue uptake (female SCID mice, PC-3 xenograft, spleen; intravenous, 0.6 MBq, 4 h): 3.19 ± 1.21 %ID/g
